Assay results of several laboratories.
± gives the spread as reported.
Target: Aurora kinase B (AURKB, Homo sapiens, UniProt Q96GD4)
Sequence of UniProt Q96GD4 (whole entry, looked up): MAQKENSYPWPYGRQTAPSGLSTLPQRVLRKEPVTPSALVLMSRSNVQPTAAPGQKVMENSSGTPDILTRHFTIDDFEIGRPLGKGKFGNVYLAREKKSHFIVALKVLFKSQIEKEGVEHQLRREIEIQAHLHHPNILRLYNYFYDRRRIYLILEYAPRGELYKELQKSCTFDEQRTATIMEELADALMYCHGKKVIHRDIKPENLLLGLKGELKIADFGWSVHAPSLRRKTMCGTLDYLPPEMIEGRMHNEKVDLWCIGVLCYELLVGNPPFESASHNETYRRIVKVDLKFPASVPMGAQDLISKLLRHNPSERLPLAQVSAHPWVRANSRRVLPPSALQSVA

| SMILES | test | test system | conditions | scale | measurement | value |
| --- | --- | --- | --- | --- | --- | --- |
| Cc1cc(-c2ccnc3[nH]cc(F)c23)cc(F)c1[C@@]1(O)[C@H](C)CN(C2CCS(=O)(=O)CC2)C[C@@H]1C | ATP/ADP probe binding, KiNativ | HEK293T lysate | 1 µM, Lys1 peptide |  | probe labelling inhibition | 41.4% |
| CC#CC(=O)N1CCC[C@H]1c1nc(-c2ccc(C(=O)Nc3ccccn3)cc2)c2c(N)nccn12 | kinase activity, inhibitor, HotSpot radiometric |  | 100 nM, with: ATP 10 µM |  | remaining activity | 88.3 ± 2.7% |
| CC[C@H](C)[C@H](NC(=O)[C@H](Cc1ccc(O)cc1)NC(=O)CNC(=O)[C@H](Cc1ccccc1)NC(=O)[C@H](CCSC)NC(=O)[C@@H](NC(=O)[C@H](CC(C)C)NC(=O)[C@H](Cc1ccc(O)cc1)NC(=O)[C@@H](NC(=O)[C@H](Cc1ccccc1)NC(=O)[C@@H]1CCCN1C(=O)[C@@H](N)CS)C(C)C)[C@@H](C)CC)C(=O)N[C@@H](Cc1ccc(O)cc1)C(=O)N[C@@H](CCCNC(=N)N)C(=O)N[C@@H](CC(C)C)C(=O)N[C@@H](CC(=O)O)C(=O)N[C@@H](CC(C)C)C(=O)NCC(=O)NCC(=O)N[C@@H](CO)C(=O)NCC(=O)NCC(=O)N[C@@H](CCCCN)C(=O)N[C@@H](Cc1ccccc1)C(=O)N[C@@H](CCC(=O)O)C(=O)N[C@@H](CCCNC(=N)N)C(=O)N[C@@H](CCC(N)=O)C(=O)O | degrader, immunoblotting | SUP-B15, HAL-01, RS4;11, BALL-1 | 24 h |  | concentration for complete degradation | 1 µM |
| COc1cc(F)ccc1-c1ncnc(Nc2cccc(C[S@](C)(=N)=O)c2)n1 | kinase activity |  | 10 µM, with: 10 µM ATP |  | remaining activity | 42% |
| COc1ccc(F)cc1C(=O)NCc1ccc(-c2nn([C@@H](C)C(F)(F)F)c(N)c2C(N)=O)cc1 |  |  | 1000 nM, with: ATP at Km |  | remaining activity | 87.1 ± 1.6% |
| C=CC(=O)N1CCC[C@@H](n2nc(-c3ccc(Oc4ccccc4)cc3)c3c(N)ncnc32)C1 |  |  | 0.1 µM |  | remaining activity | 153% |
| Cc1ncsc1-c1ccc([C@H](C)NC(=O)[C@@H]2C[C@@H](O)CN2C(=O)[C@@H](NC(=O)CCCCCCCCC(=O)N(CCO)CCCOc2ccc3c(Nc4cc(CC(=O)Nc5cccc(F)c5)[nH]n4)ncnc3c2)C(C)(C)C)cc1 | degrader, western blot | HPAF-II cells | 1 µM |  | duration of degradation | ≤ 24 h |
| Cc1cc(Nc2cc(N3CCN(C)CC3)nc(Sc3ccc(NC(=O)C4CC4)cc3)n2)[nH]n1 | kinase activity |  | 0.03 µM | reference: control | remaining activity | 4% |
| Cc1cc(-c2ccnc3[nH]cc(F)c23)cc(F)c1[C@@]1(O)[C@H](C)CN(C(=O)CN)C[C@@H]1C | ATP/ADP probe binding, KiNativ | HEK293T lysate | 0.1 µM, Lys1 peptide |  | probe labelling inhibition | -25.7% |

A few entries again:
| SMILES | test | test system | conditions | scale | measurement | value |
| --- | --- | --- | --- | --- | --- | --- |
| Cc1cc(-c2ccnc3[nH]cc(F)c23)cc(F)c1[C@@]1(O)[C@H](C)CN(C2CCS(=O)(=O)CC2)C[C@@H]1C | ATP/ADP probe binding, KiNativ | HEK293T lysate | 1 µM, Lys1 peptide |  | probe labelling inhibition | 41.4% |
